Results gathered from unrelated publications.
Protocols differ between the studies behind these lines. “And” joins repeats or separate records; there may be more than shown.
Effect on: tubulin polymerisation
Action: inhibitor

Structure (SMILES) | method | time | IC50
N#Cc1c(-c2ccccc2)c(-c2ccccc2)nn(CC(=O)O)c1=O |  | 20 min | 6.2 µM
COc1ccc(OC)c(CCc2cc(C#N)c(N)s2)c1 | absorbance | 20 min | 0.74 µM
COc1ccc(/C=N/NC(=O)c2ccc(-c3cc(OC)c(OC)c(OC)c3)nc2C)cc1OC |  |  | 0.0176 µM
COc1ccc2c(NC(C)=O)c(C(=O)c3cc(OC)c(OC)c(OC)c3)oc2c1 |  |  | 1.6 µM
COC(=O)c1cc(CCc2cc(OC)ccc2OC)sc1N | absorbance | 20 min | 1.9 µM
CCn1c2ccccc2c2cc(C(O)c3cccc4ncccc34)ccc21 (stereo not shown) |  |  | 3.2 µM
Cn1ccc2cc(-n3nnnc3-c3cc(Cl)nc(Cl)c3)ccc21 | absorbance |  | 2.8 µM
O=C(/C=C/C(=O)c1ccccc1)Nc1ccccc1 | absorbance |  | < 5 µM
COC(=O)c1cc(CCc2ccccc2OC)sc1N | absorbance | 20 min | > 20 µM
COc1ccc2c(C(=O)c3cccc(OC(F)(F)F)c3)c(-c3ccc(OC)c(O)c3)[nH]c2c1 | absorbance |  | < 5 µM
COc1ccccc1/C=N/NC(=O)c1ccc(-c2cc(OC)c(OC)c(OC)c2)nc1C |  |  | 0.0224 µM
COc1ccc2c(NC(=O)CBr)c(C(=O)c3cc(OC)c(OC)c(OC)c3)oc2c1 |  |  | 2.3 µM
N#Cc1c(-c2ccc(F)cc2)c(-c2ccc(F)cc2)nn(Cc2nn[nH]n2)c1=O |  | 20 min | 2.5 µM
COc1cc(OC)c(/C=N/NC(=O)c2ccc(-c3cc(OC)c(OC)c(OC)c3)nc2C)c(OC)c1 |  |  | 0.0501 µM
N#Cc1c(-c2ccc(Cl)c(Cl)c2)c(-c2ccc(Cl)c(Cl)c2)n[nH]c1=O |  | 20 min | 6.2 µM
CCCCCCSc1nnc(-c2ccc(-c3cc(OC)c(OC)c(OC)c3)nc2C)o1 |  |  | 0.0483 µM
COc1ccc(OC)c(NC(=O)c2cc(-c3c[nH]c4ccccc34)n[nH]2)c1 | absorbance | 20 min | 19 µM and < 20 µM
COc1cc(-c2ccc(C(=O)N/N=C/c3cc(C)ccc3C)c(C)n2)cc(OC)c1OC |  |  | 0.0204 µM
O=C(/C=C/C(=O)c1ccc(F)cc1)Nc1ccccc1 | absorbance |  | < 5 µM
